Measured values pooled from the literature.
Protocols differ between the studies behind these lines. Several values in a cell are separate wells, animals, samples, runs or records. Numbers after ± are the reported error.
Sequence of UniProt Q9NUW8 (whole entry, looked up): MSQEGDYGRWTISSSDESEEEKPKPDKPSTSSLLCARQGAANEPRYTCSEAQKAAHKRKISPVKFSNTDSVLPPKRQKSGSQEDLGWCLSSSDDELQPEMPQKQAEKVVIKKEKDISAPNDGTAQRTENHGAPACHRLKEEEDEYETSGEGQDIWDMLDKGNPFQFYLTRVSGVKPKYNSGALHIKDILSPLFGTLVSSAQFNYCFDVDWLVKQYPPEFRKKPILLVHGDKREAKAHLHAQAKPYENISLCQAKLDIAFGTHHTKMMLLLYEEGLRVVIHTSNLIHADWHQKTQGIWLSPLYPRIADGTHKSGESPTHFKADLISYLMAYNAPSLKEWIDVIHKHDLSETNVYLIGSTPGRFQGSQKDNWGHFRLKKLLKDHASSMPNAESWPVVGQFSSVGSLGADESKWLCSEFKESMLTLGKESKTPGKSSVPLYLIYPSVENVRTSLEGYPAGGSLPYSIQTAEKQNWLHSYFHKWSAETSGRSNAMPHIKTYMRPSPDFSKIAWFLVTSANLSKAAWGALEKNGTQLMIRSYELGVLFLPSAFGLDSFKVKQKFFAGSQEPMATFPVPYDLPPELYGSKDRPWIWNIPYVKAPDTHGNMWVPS

SMILES | target or system | assay | test system | conditions | how to read | endpoint | value
CC[C@H](C)[C@@H]1NC(=O)[C@H](Cc2ccc(O)cc2)NC(=O)CCCSC[C@@H](C(=O)N(CC(=O)N[C@@H](CC(C)C)C(=O)NCC(N)=O)Cc2ccc(F)cc2)NC(=O)[C@H](CC(N)=O)NC(=O)[C@H](CCC(N)=O)NC1=O | – | – | human | intranasal, 300 µg single dose | – | adverse drug reactions | 17%
CN(C)C(=O)c1ccnc(N2Cc3cn(Cc4ccc(C#N)cc4)nc3C2)n1 | – | metabolic stability | rat, liver microsomes | – | – | half-life | 2.67 h
C=C(NC(=O)c1csc(-c2nc3c(cc2O)-c2nc(cs2)C(=O)NC(C(C)O)C(=O)NC(=C(C)OC)c2nc(cs2)C(=O)NC2c4nc(cs4)C(=O)NC(COC(=O)c4c5c6c(cccc6n4O)COC(=O)C(OC4CC(C)(O)C(N(C)C)C(C)O4)C2OC5)c2nc-3cs2)n1)C(N)=O (stereo not drawn) | – | – | cynomolgus monkey, plasma | intravenous, 3 mg/kg, single dose, infusion | – | AUC(0-inf) | 24500 ng·h/mL
COc1cccc(OC)c1-c1cc(C(=O)NC2(C(=O)O)C3CC4CC(C3)CC2C4)nn1-c1ccc(C(=O)N(C)CCCN(C)CCCN(C)C(=O)[C@H](CCCCNC(=O)[C@H](CC(C)C)NC(=O)C2OC2C(=O)O)NC(=O)CN2CCN(CC(=O)[O-])CCN(CC(=O)[O-])CCN(CC(=O)[O-])CC2)cc1C(C)C.[177Lu+3] (mixture of isomers) | – | – | mouse HT-29 xenograft | 4 h, biodistribution | reference: tumour over pancreas | tumour-to-pancreas ratio | 23.8
CCCCN1C(=O)c2cccc3c(NCCN4CCOCC4)ccc(c23)C1=O | – | – | 1,4-dioxane | – | – | fluorescence quantum yield | 0.1
CN(O)C(=O)CCC(=O)NCCCN(CCCCN(CCCNC(=O)CCC(=O)N(C)O)C(=O)CCC(=O)N(C)O)C(=O)CCC(=O)N(C)O.[89Zr] | – | radio-TLC | aqueous buffer | 3 d, pH 7, 37 °C, 89Zr-labelled complex, with: DTPA 100-fold excess | – | intact complex | 98.4 ± 1.4%
O=C(Nc1cnccc1-c1ccc([18F])nc1)c1ccnc(NC(=O)C2CC2)c1 | – | – | FVB/NJ mice (both sexes), feces | intravenous, dose not given, 120 min | – | SUV | 2.02
COc1cc(-c2nc3ccccc3s2)cc(CN2CCN(CC(=O)O)CCN(Cc3cc(-c4nc5ccccc5s4)cc(OC)c3O)CC2)c1O | – | UV-vis spectrophotometric titration | aqueous NaCl 0.1 M | 20 µM, 25 °C, pH 3 to 11 | – | pKa2 | 4.47
CC(=O)N1CCN(C(=O)c2ccc(Nc3nccc(-c4ccc(Cl)cc4)n3)cc2)CC1 | – | – | NSG mice | dose not given, day 2 | – | body weight | 22.3 g and 24.4 g and 24 g and 24.2 g
OC1(C(F)(F)F)CCN(c2nc(Nc3ccnc(C(F)(F)F)c3)nc(-c3cccc(C(F)(F)F)n3)n2)C1 (stereo not drawn) | – | – | monkey | oral, 10 mg/kg | – | AUC(0-inf) | 144000 ± 1550 ng·h/mL
NCCCC[C@H](NC(=O)[C@H](Cc1c[nH]c2ccccc12)NC(=O)[C@H](CCCCN)NC(=O)[C@@H](N)Cc1c[nH]c2ccccc12)C(=O)N[C@@H](Cc1c[nH]c2ccccc12)C(=O)O | – | – | MOLM-13 cell medium | 10% serum | – | time to complete degradation | ≤ 1 h
CN(C)C(=O)c1cccc(N2Cc3cn(Cc4ccc(C#N)cc4)nc3C2)c1 | – | metabolic stability | rat, liver microsomes | – | – | half-life | 1.93 h
O=C([O-])CN1CCN(CC(=O)[O-])CCN(CC(CCCc2ccccc2[N+](=O)[O-])N(CC(=O)[O-])CC(=O)[O-])CC1.[177Lu+3] (stereo not drawn) | – | – | human serum | 14 days, pH 7.0, 37 °C | – | radionuclide release | < 0.5%
CCCCN1C(=O)c2cccc3c(NCCCCCCN4CCOCC4)ccc(c23)C1=O | – | – | dioxane | – | – | emission maximum | 513 nm
COc1cnc2cccc(N3CCc4c(cc(Cn5ccnc5)cc4-c4cn(C)nc4C(F)(F)F)C3=O)c2c1 | – | – | male CD-1 mouse, plasma | intraperitoneal, 10 mg/kg | – | half-life | 0.8 h
Cc1cnc2nc1Nc1cccc(c1)COC/C=C/COCc1cc(ccc1OCCN1CCOCC1)N2 | – | – | BALB/c mice, rhEPO-induced polycythemia | 75 mg/kg, day 0 | – | body weight | 18.3 g and 19.7 g and 18.2 g and 19.4 g and 18 g and 17.4 g
COc1cc2oc(-c3ccc(F)cc3)cc(=O)c2c(O)c1O | – | cyclic voltammetry | DMSO, 0.1 M Bu4NPF6 | 25 °C | – | half-wave potential | -1.88 V vs Ag/AgCl
CCCCN1C(=O)c2cccc3c(NCCCCCN4CCOCC4)ccc(c23)C1=O | – | – | DMF | – | – | emission maximum | 526 nm
CS(=O)(=O)c1cc(Cl)cc(-c2cc(Cl)c(Cl)cc2Cl)c1Cl | – | – | whole cow milk | 20 nM nominal | – | dose fraction in milk fat | 86.7%
C=CC(=O)Nc1cc(Nc2nccc(-c3c[nH]c4ccccc34)n2)c(OC)cc1N(C)CCN(C)C | – | storage stability | human plasma | 10 d, on ice, MQC level | – | recovery | 61.1%
COC1C=COC2(C)Oc3c(C)c(O)c4c(c3C2=O)C2=NC3(CCN(CC(C)C)CC3)NC2=C(NC(=O)C(C)=CC=CC(C)C(O)C(C)C(O)C(C)C(OC(=O)Nc2cscn2)C1C)C4=O (stereo not drawn) | – | – | CD-1 mouse, female, plasma | intravenous, 5 mg/kg | – | volume of distribution | 1.5 L/kg

SMILES | target or system | assay | test system | conditions | how to read | endpoint | value
COCC1CN(C2CCN(c3cc(OC)c(Nc4ncc(Br)c(Nc5ccc6c(c5P(C)(C)=O)OCCO6)n4)cc3C)CC2)C1 | – | – | EGFR-mutant NSCLC patients | oral, 60 mg once daily | – | patients with adverse events | 100%
CCCCN1C(=O)c2cccc3c(NCCCCN4CCOCC4)ccc(c23)C1=O | – | – | dichloromethane | – | – | emission maximum | 509 nm
CC(C(=O)O)n1nc(Cn2cc3cc(OCC[18F])c(Cl)cc3n2)c2ccccc2c1=O (racemic) | – | – | rat, bone | 30 min | – | tracer uptake | 0.14 %ID/g
CC(C)C[C@@H](NC(=O)[C@H](NC(=O)[C@H]1CCCN1)[C@H](C)O)C(=O)N[C@H](Cc1c[nH]cn1)C(=O)N[C@@H](C(=O)N[C@H](Cc1c[nH]cn1)C(=O)N[C@H](CC(N)=O)C(=O)N[C@H](CCCNC(=N)N)C(=O)N[C@H](CCCNC(=N)N)C(=O)N[C@H](CCCNC(=N)N)C(=O)N[C@H](CCCNC(=N)N)C(=O)N[C@H](CCCNC(=N)N)C(N)=O)[C@H](C)O | – | – | Beagle dog, blood | oral, 30 mg/kg daily, 3 months | – | triglycerides | 2.6 mmol/L
COc1cccc(OC)c1-c1cc(C(=O)NC2(C(=O)O)C3CC4CC(C3)CC2C4)nn1-c1ccc(C(=O)N(C)CCCN(C)C(=O)[C@H](CCCCNC(=O)[C@H](CC(C)C)NC(=O)C2OC2C(=O)O)NC(=O)CN2CCN(CC(=O)[O-])CCN(CC(=O)[O-])CCN(CC(=O)[O-])CC2)cc1C(C)C.[177Lu+3] (mixture of isomers) | – | – | mouse HT-29 xenograft | 72 h, biodistribution | reference: tumour over pancreas | tumour-to-pancreas ratio | 27.4
O=C1C2CC3CC1CC(C(=O)N1CCN(c4ccc([N+](=O)[O-])c5ncccc45)CC1)(C3)C2 | – | – | ICR mice male, plasma | intravenous, 1 mg/kg | – | Vss | 0.842 L/kg
O=C(O)c1c(O)cc(O[C@@H]2O[C@H](CO)[C@@H](O)[C@H](O)[C@H]2O)cc1/C=C/c1ccccc1 | – | crystal violet | NCTC 1469, mouse | 50 µM, 2 d | – | viability | > 50%
COc1cccc(OC)c1-c1cc(C(=O)NC2(C(=O)O)C3CC4CC(C3)CC2C4)nn1-c1ccc(C(=O)N(C)CCOCCOCCN(C)C(=O)[C@H](CCCCNC(=O)[C@H](CC(C)C)NC(=O)C2OC2C(=O)O)NC(=O)CN2CCN(CC(=O)[O-])CCN(CC(=O)[O-])CCN(CC(=O)[O-])CC2)cc1C(C)C.[177Lu+3] (mixture of isomers) | – | – | mouse HT-29 xenograft | 4 h, biodistribution | reference: tumour over spleen | tumour-to-spleen ratio | 5.59
CCCCN1C(=O)c2cccc3c(NCCCCCCCCN4CCOCC4)ccc(c23)C1=O | – | – | dioxane | – | – | emission maximum | 516 nm
CN[C@H](CC(C)C)C(=O)N[C@H]1C(=O)N[C@@H](CC(N)=O)C(=O)N[C@H]2CN[C@H]3C(=O)N[C@H](C(=O)N[C@H](C(=O)NCCCNC(=N)N)c4cc(O)cc(O)c4-c4cc3ccc4O)[C@H](O)c3ccc(c(Cl)c3)Oc3cc2cc(c3O[C@@H]2O[C@H](CO)[C@@H](O)[C@H](O)[C@H]2O[C@H]2C[C@](C)(NCc3ccc(-c4ccc(Cl)cc4)cc3)[C@H](O)[C@H](C)O2)Oc2ccc(cc2Cl)[C@H]1O | – | – | mouse | intravenous, 50 mg/kg | – | volume of distribution | 0.24 L/kg
CCCC[N+]1=c2cc3c4cc2[O][Mn-2]1(=[C]=O)(=[C]=O)(=[C]=O)[n+]1ccc(cc1)C(=O)Oc1ccccc1OC(=O)c1cc[n+](cc1)[Mn-2](=[C]=O)(=[C]=O)(=[C]=O)([O]3)[N+]=4CCCC | – | – | DMSO/water 8:2 | dark | – | stability time | ≥ 24 h
O=C(Nc1cnccc1-c1ccc([18F])cc1)c1ccnc(NC(=O)C2CC2)c1 | – | ex vivo gamma counting | FVB/NJ mice, both sexes, left kidney | intravenous, 120 min, with: tariquidar 15 mg/kg iv | – | mean SUV | 0.93
CCCCN1C(=O)c2cccc3c(NCCCN4CCOCC4)ccc(c23)C1=O | – | – | water | pH 6.0 | – | emission maximum | 548 nm
CC(C)(O)c1ncc([S@](N)(=O)=NC(=O)Nc2c3c(cc4c2CCC4)CCC3)s1 | – | measured: nervous system disorders | healthy human volunteers | oral, 100 mg single dose, spray-dried dispersion | – | subjects with adverse events | 17%
COc1ccc(Nc2nc(Nc3ccc(OCCOCC[18F])cc3)ncc2Br)cc1 | – | – | ICR mice, S180 tumour-bearing, heart | intravenous, 370 kBq, 15 min | – | tissue uptake | 2.81 ± 0.09 %ID/g
CC1(C)C(=CC=C2CCCC(C=CC3=[N+](CCC[N+](C)(C)C)c4ccc(S(=O)(=O)O)cc4C3(C)C)=C2SCCOCCOCCC(=O)O)N(CCC[N+](C)(C)C)c2ccc(S(=O)(=O)O)cc21 | – | – | DMSO | – | – | emission maximum wavelength | 834 nm
C=C[C@]1(C)C[C@@H](OC(=O)CSc2ccc(NC(=O)c3ccco3)cc2)[C@]2(C)[C@H](C)CC[C@]3(CCC(=O)[C@H]32)[C@@H](C)[C@@H]1O | – | – | Mycoplasma gallisepticum-infected chickens, plasma | intramuscular, 5 mg/kg, 10 h | – | plasma concentration | 24.4 ng/mL and 11.1 ng/mL and 14.4 ng/mL and 18.4 ng/mL and 8.78 ng/mL and 11.5 ng/mL and 17.3 ng/mL and 10.4 ng/mL
CC[C@H](C)[C@H](NC(=O)[C@H](CC(=O)O)NC(C)=O)C(=O)N[C@@H](Cc1ccccc1)C(=O)N[C@@H](Cc1ccccc1)C(=O)N[C@@H](CCCNC(=N)N)C(=O)N[C@@H](Cc1ccc(O)cc1)C(=O)N[C@@H](CC(N)=O)C(=O)NCC(=O)N[C@@H](CCCCN)C(=O)N[C@H](C(=O)N[C@@H](Cc1c[nH]c2ccccc12)C(=O)N[C@@H](Cc1c[nH]c2ccccc12)C(=O)N[C@@H](CCCNC(=N)N)C(=O)O)C(C)C | – | circular dichroism | free peptide in solution | concentration not given, 25 °C, no insulin present | – | β-strand content | 40.3%
Cc1c(C(N)=O)cc(Cl)c2c1O[C@@](C)([C@H]1CC[C@H](N(C)C)CC1)O2 | – | – | healthy men, urine | oral, 200 mg [14C]-valemetostat, 0 to 48 h | reference: dose | excretion | 0.64%
C/C(N)=N/C(=N\S(=O)(=O)c1ccc(C(F)(F)F)cc1)N1C[C@H](c2ccccc2)C(c2ccc(Cl)cc2)=N1 | – | – | beagle dog, plasma | oral, 36 mg/kg | – | Cmax | 2490 ng/mL
CC1CN(c2ccc(C=NOCc3ccc(-c4nc5cc(-c6ccccc6)ccn5c4Nc4ccc(C(=O)O)cc4)cc3)cc2[N+](=O)[O-])CCO1 (stereo not drawn) | Tyrosyl-DNA phosphodiesterase 1 (TDP1, Homo sapiens, UniProt Q9NUW8) | enzyme activity, inhibitor | – | 100 µM, unpurified compound | – | inhibition | 12.2%
